Published values gathered from unrelated publications.
Each numbered part is a random draw from the data of one study; scales do not carry over between parts. Positions count from the first letter of the parent shown.

Set 1
Target: Homeobox protein Hox-C11, full length (HOXC11, Homo sapiens, UniProt O43248, residues 1-304)
Chain of UniProt O43248 (whole entry, looked up): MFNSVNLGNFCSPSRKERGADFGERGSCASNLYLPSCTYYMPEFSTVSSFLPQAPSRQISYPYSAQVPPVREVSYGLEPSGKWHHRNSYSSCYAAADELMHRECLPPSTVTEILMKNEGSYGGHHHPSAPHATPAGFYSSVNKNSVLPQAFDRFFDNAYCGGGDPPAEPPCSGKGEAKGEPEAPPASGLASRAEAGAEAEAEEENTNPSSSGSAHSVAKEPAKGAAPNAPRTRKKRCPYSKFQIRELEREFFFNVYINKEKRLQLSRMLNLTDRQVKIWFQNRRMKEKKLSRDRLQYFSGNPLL
Method: protein-binding microarray
Form: hairpin DNA
Medium: in vitro
Tested at: not given
Setting: whole hairpin DNA, median over replicate spots
Reference: not given
Reading: higher = stronger binding
Measurement: median fluorescence
GAGGCCAGGTCCGAAAAGCCTCCTGGCTTTTCGGACCTGGCCTCACACTC (5mC at 12 32): 9840 a.u.
GAGGCCCGGTCGTAAAAGCCTCCTGGCTTTTACGACCGGGCCTCACACTC: 9970 a.u.
GAGGCCACGTCGTAAAAGCCTCCTGGCTTTTACGACGTGGCCTCACACTC (5mC at 36): 9610 a.u.
GAGGCCAGGTCGTCGAAGCCTCCTGGCTTCGACGACCTGGCCTCACACTC: 10200 a.u.
GAGGCCAGGACGTAAAAGCCTCCTGGCTTTTACGTCCTGGCCTCACACTC: 9720 a.u.
GAGGCCAGGTCGTTAATGCCTCCTGGCATTAACGACCTGGCCTCACACTC: 10500 a.u.
GAGGCCAGGACGTTAAAGCCTCCTGGCTTTAACGTCCTGGCCTCACACTC: 9610 a.u.
GAGGCCAGGTCGTAATAGCCTCCTGGCTATTACGACCTGGCCTCACACTC: 10200 a.u.
GAGGCCAGGTCGTAACGGCCTCCTGGCCGTTACGACCTGGCCTCACACTC (5mC at 28): 11900 a.u.
GAGGCCAGATCGTTAAAGCCTCCTGGCTTTAACGATCTGGCCTCACACTC: 9780 a.u.
GAGGCCAGGTCGTAACGGCCTCCTGGCCGTTACGACCTGGCCTCACACTC: 10400 a.u.
GAGGCCACGTCGTAAAAGCCTCCTGGCTTTTACGACGTGGCCTCACACTC (5mC at 8): 9180 a.u.
GAGGCCAGGTCGTAACAGCCTCCTGGCTGTTACGACCTGGCCTCACACTC (5mC at 16): 10900 a.u.
GAGGCCAGGTCGTTCGAGCCTCCTGGCTCGAACGACCTGGCCTCACACTC (5mC at 29): 11300 a.u.
GAGGCCAGGTGGTTAAAGCCTCCTGGCTTTAACCACCTGGCCTCACACTC (5mC at 34): 9600 a.u.
GAGGCCAGGTCCTAAAAGCCTCCTGGCTTTTAGGACCTGGCCTCACACTC (5mC at 12): 7970 a.u.

Set 2
Target: RING finger protein unkempt homolog, zinc fingers 1-6, GST-SBP tag (UNK, Homo sapiens, UniProt Q9C0B0, residues 30-357)
Method: RNA Bind-n-Seq
Form: RNA
Medium: in vitro
Tested at: not given
Setting: RNA with constant flanks, human-mouse chimeric sites, ends assumed
Reference: input RNA pool
Reading: higher = stronger binding
Measurement: bound/input enrichment
All sequences stand within: GGGAGUUCUACAGUCCGACGAUC … CAACAGAGGAUUGAGCAUCA
Target sequence (chain): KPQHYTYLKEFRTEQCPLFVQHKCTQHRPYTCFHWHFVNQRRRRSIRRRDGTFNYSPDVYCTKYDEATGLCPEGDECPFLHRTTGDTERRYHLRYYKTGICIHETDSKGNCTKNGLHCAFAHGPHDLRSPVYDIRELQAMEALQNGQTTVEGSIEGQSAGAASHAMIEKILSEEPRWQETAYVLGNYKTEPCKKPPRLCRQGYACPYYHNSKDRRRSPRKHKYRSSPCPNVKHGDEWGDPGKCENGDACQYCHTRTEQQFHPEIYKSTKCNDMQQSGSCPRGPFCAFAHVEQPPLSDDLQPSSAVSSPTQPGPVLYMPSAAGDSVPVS
AGGAGGAGGUUAAAGGGUGAAAAUGGGGUGGAAGACUGUGUCAUGGCCCUAGAAACCCUGUUCAGUGUCCUGCUUUCUCUGUGCAGACUGAUGGCCCCUUACACGCCCUUUCUGACUGAG: 0.0504 ratio
ACUCAGAGAUCCACCUCCCAAAGUGCUGGGAGUAAAGGUGUGGCCACCACACCUAACUUCAUAGACAUAUAUUUUUUCUCUUUUAUGUCUUCCUGUUCGUCCAGGGAAGAAAGAUUUGUU: 1.75 ratio
CCACCAGGAUCCCAGAAACAUGACCCUUGCUGCCUACAAAGAGAAGAUGAAGGAGCUCCCGCUGGUGUCCUUGUUCUGCUCUUGCUUCCUGGCCGAUCCCCUGAAUAAGUCGUCCUACAA: 0.157 ratio
GCUCCUCCCCGCUCUGCAGCCUGGGGACACUGGGCUGGGACCAGAAUCCAGCUUUCUUUUAAUAGUGUCAGUGUAACUGUAUCCCGUGACAUUUCAUUUUUUUUAAAUAGUGUAUUUUUU: 8.05 ratio
UUUGUAUUUAUGCUAAGCACACGUGCUGGUGGUCUGGGCAUCAAUCUUGCAACUGCUGAUGUAGUCAUUUUGUAUGACUCAGAUUGGAAUCCGCAAGUAGAUCUUCAGGCUAUGGACCGU: 0.124 ratio
AAAGAGAAAGCUAAAACACUAAUAGAGAAGAGGAUUGGGCAAAGAGAUUUCAUAGAGAAACUAGGAUUUAUUAGCAAACAUGAGUUAUAUUCCAGAGCGUCUCAGAAACCCCAGCCAAAC: 3.05 ratio
GGACAUCUGUCAAAUUGUUAUGUUCCUAAAAACGUAGUGAACACUCUGAUACACUUCAUCUGCUUGUACAUCUGUAUGAUAGAGAAACAGAAAUCUAUUAAUCCAAGCAAUGUGUCACUU: 0.119 ratio
CGCUGGCCCAAGCUGAUGUAAAUGUUUCUUGAUCUCUUCUCAGGCACGUGUGCCUUCUCUUAGUCCCUGUUUUCGGGAUGUUAUGAAUCUCAGUACUGUGGUUUGAAAGCACCAGCUUUG: 0.21 ratio
GUGCCCUUCUCGCUGCUGCGGAGCCCGAGCUGGGAACCAUUCCGGGACUGGUACCCUCCGCAUAGCCGCCUCUUCGAUCAAGCUUUCGGGGUGCCCCGGUUGCCCGAUGAGUGGUCGCAG: 0.057 ratio
CUUAAUGUUAAUAUUUUUGAAUAAAUGAAGCUAAAAUGUCUGCUUUUGGUACUACAUGCAUUAAUAAAAGGUUAAGUUUUGUUUUCCACUGAAGUACUAUUUAACAUCUCAGAAAAAAAC: 0.225 ratio
ACCUCCCCCUCCCGCCUCACCCCACCCCCGCUUUUUGAAAGUGUGUUGGCGUUUCUUUUCCUUCCCCAUACAAAGUGAUUACAGUUUAGAGUCUAUGGGUCUAUCGAAGGGCUUGACGGA: 0.566 ratio

Set 3
Target: CCNA1, cyclin fold, Cln2 fusion (human)
Method: yeast growth competition, sequencing
Medium: yeast
Setting: weak parent motif
Reference: not given
Reading: higher = stronger binding
Measurement: normalised enrichment score
Parent: KIF20B docking peptide (human); KRAKRKLYTSEIS
S13A: 0.306
K1A: 0.432
R2A: 0.199
R5A: 0.00957
T9A: 0.331
L7A: 0.49

Set 4
Target: Histone acetyltransferase KAT6A, both winged helices, GST fusion (KAT6A, Homo sapiens, UniProt Q92794, residues 1-181)
Method: protein binding microarray
Form: double-stranded DNA, one strand shown
Medium: in vitro
Tested at: not given
Setting: 8-mer, flanks averaged, mean of 2 arrays, mostly near background
Reference: not given
Reading: higher = stronger binding
Measurement: E-score
Target sequence (chain): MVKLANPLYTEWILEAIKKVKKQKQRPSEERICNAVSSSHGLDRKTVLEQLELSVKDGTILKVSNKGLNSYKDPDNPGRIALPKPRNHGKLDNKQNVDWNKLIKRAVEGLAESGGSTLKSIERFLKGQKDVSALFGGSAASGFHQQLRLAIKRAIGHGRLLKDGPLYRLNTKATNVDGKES
CTTCGAAC: -0.055
ACGGACAA: 0.175
AGGGCCCT: -0.162
CTCACATA: -0.0555
ATGGGGAA: -0.217
AGACGACC: -0.0205
AATCATGA: -0.123
AATCTTCG: 0.0375
CCCATTCA: -0.248
CGGCCGAG: 0.319
CCCTTGAC: -0.0101
ACACGCAC: 0.132
GACGGAGC: 0.0596
CGTTGGGA: -0.0828
AGTGGGCG: -0.0186
CGAGATCG: 0.0954
AAGTCCGT: 0.213
ACCTTTAT: -0.136
AAGTCTAT: -0.192
CAGTCCAC: -0.208
ACCCCGGG: 0.205
GGACTAGA: -0.111
CCGGTATA: 0.198
AGTGAAGG: -0.25
CACACAAA: -0.175

For quick reference, copied from above (set 4):
AAGTCCGT: 0.213
ACCTTTAT: -0.136
AAGTCTAT: -0.192
CAGTCCAC: -0.208
ACCCCGGG: 0.205
GGACTAGA: -0.111
CCGGTATA: 0.198
AGTGAAGG: -0.25
CACACAAA: -0.175
